Results of several laboratories.
Each line is one published result; not all experiments were run side by side. pEC50: −log10 of the molar value.
Organism: Trypanosoma brucei

SMILES	read-out	technique	strain	time	pEC50
COc1ccc2c(C[Se][C@@H]3O[C@H](CO)[C@@H](O)[C@H](O)[C@H]3O)cc(=O)oc2c1	parasite growth	–	–	24 h	~5.30
Nc1nc(NCC2CCCCC2)sc1C(=O)c1ccccc1	cell proliferation	resazurin	bloodstream form	73 h	6.40
N[C@H](C(=O)O)[C@@H]1CC(Cl)=NO1	parasite growth	resazurin	–	72 h	6.35
Cc1ccc(C(=O)Nc2ccc(S(=O)(=O)O)c3cc(S(=O)(=O)O)cc(S(=O)(=O)O)c23)cc1NC(=O)c1cccc(NC(=O)Nc2cccc(C(=O)Nc3cc(C(=O)Nc4ccc(S(=O)(=O)O)c5cc(S(=O)(=O)O)cc(S(=O)(=O)O)c45)ccc3C)c2)c1	parasite growth	–	–	24 h	6.44
O=C(O)C1=CC(=C(c2ccc(O)c(C(=O)O)c2)c2ccc(O)c(C(=O)O)c2)C=CC1=O	cell viability	flow cytometry, PI	bloodstream form	24 h	< 4.60
Nc1nc(Nc2ccccc2)sc1C(=O)c1cccc(Br)c1	cell proliferation	resazurin	bloodstream form	73 h	6.70
CC1CS(=O)(=O)CCN1/N=C/c1ccc([N+](=O)[O-])o1 (stereo not shown)	parasite growth	–	–	24 h	5.22
CCN1N=C(Cl)C[C@@H]1[C@H](N)C(=O)O (relative stereo)	parasite growth	resazurin	–	72 h	4.05
CN(C)c1ccc(N2C(=O)CN(Cc3ccc(F)cc3)C2=S)cc1Cl	parasite growth	resazurin	–	48 h	8.52
O=C(Nc1nc2cc(-c3ccc(F)c(F)c3)ccc2s1)N1CCC(F)C1 (stereo not shown)	parasite growth	resazurin	–	48 h	< 5.70
N[C@H](C(=O)O)[C@H]1CC(Cl)=NN1Cc1ccccc1 (relative stereo)	parasite growth	resazurin	–	72 h	4.25
O=C(Nc1ccc2oc(-c3ccccc3)nc2c1)N1CCCC1	parasite growth	resazurin	–	48 h	≤ 5.55
Nc1nc(Nc2ccccc2)sc1C(=O)c1c(F)cccc1F	cell proliferation	resazurin	bloodstream form	73 h	6.70
N#CC1CCN(C(=O)Nc2ccc3sc(-c4ccc(F)c(F)c4)nc3c2)C1 (stereo not shown)	parasite growth	resazurin	–	48 h	5.10 to 5.82
CN(C)C1=NO[C@H]([C@H](N)C(=O)O)C1	parasite growth	resazurin	–	72 h	< 4.00
O=C(NCCc1nc(-c2cccc(F)c2)cs1)N1CCC(F)CC1	parasite growth	–	–	–	> 7.30
O=C(N[C@H](C(=O)O)[C@@H]1CC(Br)=NO1)OCc1ccccc1	parasite growth	resazurin	–	72 h	< 4.00
CC1CCCCN1C(=O)NCCc1nc(-c2cccc(F)c2)cs1 (stereo not shown)	parasite growth	–	–	–	> 7.30
Cc1ccc(Nc2nc(N)c(C(=O)c3ccccc3)s2)cc1C	cell proliferation	resazurin	bloodstream form	73 h	6.70

Repeated from above:
SMILES	read-out	technique	strain	time	pEC50
CN(C)c1ccc(N2C(=O)CN(Cc3ccc(F)cc3)C2=S)cc1Cl	parasite growth	resazurin	–	48 h	8.52
O=C(Nc1ccc2oc(-c3ccccc3)nc2c1)N1CCCC1	parasite growth	resazurin	–	48 h	≤ 5.55
